Published values pooled from the literature.
Parts stem from different laboratories: compare values within a part only.

Series 1
Target: Ras GTPase-activating protein-binding protein 1, C-terminal RGG region (G3BP1, Homo sapiens, UniProt Q13283)
Sequence of UniProt Q13283 (whole entry, looked up): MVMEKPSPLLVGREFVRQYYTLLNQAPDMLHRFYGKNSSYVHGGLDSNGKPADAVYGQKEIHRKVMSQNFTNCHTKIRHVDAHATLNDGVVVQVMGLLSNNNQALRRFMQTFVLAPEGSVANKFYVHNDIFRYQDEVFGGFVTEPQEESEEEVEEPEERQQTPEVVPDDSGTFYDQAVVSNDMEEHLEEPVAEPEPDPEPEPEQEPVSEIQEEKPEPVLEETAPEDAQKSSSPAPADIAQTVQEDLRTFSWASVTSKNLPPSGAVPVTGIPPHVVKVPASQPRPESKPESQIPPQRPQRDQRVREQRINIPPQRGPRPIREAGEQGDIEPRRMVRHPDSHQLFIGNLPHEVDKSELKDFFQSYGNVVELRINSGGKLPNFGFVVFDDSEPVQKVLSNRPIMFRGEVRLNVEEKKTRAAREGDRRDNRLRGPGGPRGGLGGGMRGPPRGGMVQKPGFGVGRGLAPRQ
Method: RNA Bind-n-Seq
Molecule type: RNA
Matrix: in vitro
Concentration: 1 µM
Setting: whole 134-nt RNA, ends assumed
With: 150 mM KCl
Relative to: input library
Direction: higher = stronger binding
For `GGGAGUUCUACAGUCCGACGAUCCCUCAAGUCCUGUGCUACACAUCGUAUGUACCGAAUCGGUGGUUUGGUUUGGAAAGUAUUAUGUUACGCCGUUCGGAUCUGCACUUCCAGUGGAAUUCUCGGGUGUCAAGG`, the log2 enrichment was -1.02.
`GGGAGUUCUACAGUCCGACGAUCAGUCCUGUGCUACACAUCGUAUGUACCGAAUCGGGGUGGGGUUUGGGGAAAAAGGGGAAAGUAUUAUGUUACGCCGUUCGGAUCUGCACUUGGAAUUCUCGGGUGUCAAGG` has a log2 enrichment of 1.63.
`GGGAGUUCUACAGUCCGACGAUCAAGUCCUGUGCUACACAUCGUAUGUACCGAAUCGGGAAAAAGGGUUUGGGUUUGGGAAAGUAUUAUGUUACGCCGUUCGGAUCUGCACUUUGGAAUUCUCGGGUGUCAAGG` gave a log2 enrichment of 1.5.
The log2 enrichment of `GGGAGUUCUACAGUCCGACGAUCUGUUGAUGCUGUAAUUGCUGAACUUAAAAAGCAGUCUAAACCUGUGACCACCCCUGAAGAAAUUGCACAGGUAAGGACUUAACAUGUUACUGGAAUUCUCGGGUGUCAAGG` is reported as 0.303.
`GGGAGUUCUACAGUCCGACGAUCGACUCUGAAGAAGAAGCUAUGGAGACUACACCAGCCAAAGGAAAGAAAGCUGCAAAAGUUGUUCCUGUGAAAGCCAAGAACGUGGCUGAGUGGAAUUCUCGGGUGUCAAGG` gave a log2 enrichment of -1.9.
The log2 enrichment of `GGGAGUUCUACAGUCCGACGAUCAGUCCUGUGCUACACAUCGUAUGUACCGAAUCGGUUUUUUUGGUUUUUUUGGAAAGGAAAGUAUUAUGUUACGCCGUUCGGAUCUGCACUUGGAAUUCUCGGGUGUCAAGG` is reported as -2.09.
The log2 enrichment of `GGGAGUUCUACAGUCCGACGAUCCCUCAAGUCCUGUGCUACACAUCGUAUGUACCGAAUCGGAAAGGUGGUUUGGAAAGUAUUAUGUUACGCCGUUCGGAUCUGCACUUCCAGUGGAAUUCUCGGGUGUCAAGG` is reported as -1.2.
`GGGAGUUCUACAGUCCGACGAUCGCAGGAAGUAAAAACAAAUGGAAAUGCUUCGGAUAGUGGCAGGGGUGGGGGUUACUAAGGAAAGGGUGGGAUGGGAGUGGGUAAAGAGUUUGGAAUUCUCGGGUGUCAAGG` has a log2 enrichment of 0.792.
`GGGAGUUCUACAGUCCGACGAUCCUGUGCUACACAUCGUAUGUACCGAAUCGGCCCCCCCGGGCCCCCCCGGGCCCCCCCGGGGAAAGUAUUAUGUUACGCCGUUCGGAUCUGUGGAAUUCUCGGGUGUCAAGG` has a log2 enrichment of -2.32.
`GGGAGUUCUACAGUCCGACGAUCACCAUGCAGGUGGGCAUCUUUGGGAAGUGGGGCAAGGGGGGGAUAGGGAGGGGGGUAACACUUUGGGAACAGAUGGUCCCAGGUCGUUUCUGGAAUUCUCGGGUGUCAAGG` gave a log2 enrichment of 2.27.

Series 2
Target: RNA binding protein fox-1 homolog 2, RRM domain, GST-SBP tag (RBFOX2, Homo sapiens, UniProt O43251-10, residues 100-194)
Method: RNA Bind-n-Seq
Molecule type: RNA
Matrix: in vitro
Concentration: 365 nM
Setting: natural RNA segment, single round, ends assumed
Relative to: no-protein control
Direction: higher = stronger binding
Construct (chain): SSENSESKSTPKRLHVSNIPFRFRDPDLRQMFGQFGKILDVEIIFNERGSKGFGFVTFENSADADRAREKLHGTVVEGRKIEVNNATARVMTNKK
`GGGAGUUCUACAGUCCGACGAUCUAUAUUUAAGUGGUAAUGAAAAAUAGUAAUCAUAGUAAAACGCAACAAGAAGAAAACCAACCCAAACCAGUGAAGUUUUUUAGAACCUUUAGAAGGGUGGUCUUUAUUCAUGGAAUUCUCGGGUGCCAA` — result for “RBNS enrichment (R)”: 1.22.
`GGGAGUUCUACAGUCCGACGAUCUGUGGAGCCUCUGGCAUAAGAGGAAAUGUUGCCCGAGCUAAGAGCAAAAGGAAGGUGAUAGGGAAUUAUGGAAGUCCAUCCAAGCCCCUGACACAGAGCCUUCUGUGCUGUGGAAUUCUCGGGUGCCAA` — result for “RBNS enrichment (R)”: 0.231.
`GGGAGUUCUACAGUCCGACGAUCCCCUCCUUCUGUAGAGGCCGCCUGCCAGCCAUGCACCUGCGUCAACGCGCCUGAAACACCCCGCGGGCCUCCCGUUGUCAUGCCUUACGGUUUCCAAUGCGCCGUCACCAUGGAAUUCUCGGGUGCCAA` — result for “RBNS enrichment (R)”: 0.694.
`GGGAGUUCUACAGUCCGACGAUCCACCCAAAGGCUCCAGCCAGCUGCACUCCUGGCAGUUUCCUGCACUUGGGCCUGAUGCUUCUCUAACUGGCAGAAGCAGGCUCUACCUGGACCUCCAGCUGGGAGGUCAUUGGAAUUCUCGGGUGCCAA` — result for “RBNS enrichment (R)”: 0.508.
For `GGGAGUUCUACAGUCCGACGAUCAGACCCGUUUGAUAGUACUUUCAGUUUUUGGCAUUUGGGGUACUUUGAAAUCCAACUUGUUUUUAAAUUCCAUGUUGGUGCCAUAGAUGUAGUUUUUACAGCCUGAAAAUUGGAAUUCUCGGGUGCCAA`, “RBNS enrichment (R)” read 0.395.
`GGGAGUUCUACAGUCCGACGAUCACUUCUUGCCCAGGAGUGUGCACAGAUGUAAGAUAAUUUUGUGAAAUAAUGUACCAUAGACUCUCACCAACUGUAUAUACCUGUACAUAUCAGAAGCAAAUAAAGAGCUCUGGAAUUCUCGGGUGCCAA`: “RBNS enrichment (R)” 0.265.
`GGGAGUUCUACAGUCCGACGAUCAUGAUCAGAAAGCUGUGAAAGAUGAACUGUAAUACGCAAAGCCAGACCCGGGCGCUGCCGAGACCCCUCGGGGGCUGCACACCCAGCAGCAGCGCACGCCUCCGAAGCCUUGGAAUUCUCGGGUGCCAA` — result for “RBNS enrichment (R)”: 0.352.
Under “RBNS enrichment (R)”, `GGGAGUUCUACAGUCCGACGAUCGGGUGCUUUGAAAUAUAAAAUGAAAACUUAUUUAUACUGUUUUUACAACAGUCAAAAAGGAAACACACGAAAAUCACUUUUCUGCAACUGAUGAACUAUAUAGACUGGACUGGAAUUCUCGGGUGCCAA` is recorded as 0.426.
For `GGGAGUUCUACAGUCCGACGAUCCAGACCAGGAAGCUCGGUGAGUGAUGGCAGAACGAUGCCUGCAGGCAUGGAACUUUUUCCGUUAUCACCCAGGCCUGAUUCACUGGCCUGGCGGAGAUGCUUCUAAGGCAUGGAAUUCUCGGGUGCCAA`, “RBNS enrichment (R)” read 0.577.
Under “RBNS enrichment (R)”, `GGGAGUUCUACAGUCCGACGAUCUUAUGGGCCUUGGGAGUACUUCUCCCCUGCCCUGCCCCACUGUCCCCUUCCUGACAACUUGAGCCAGUAAGCCAUGCAGGGUGUGGUGCCUCCUAGAGAAAACACUGCCUUGGAAUUCUCGGGUGCCAA` is recorded as 0.28.
Under “RBNS enrichment (R)”, `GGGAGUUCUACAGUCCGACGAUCCAUUUUGAGAUGAACAGAACAAUGGGCUGAGUUAUAAAAAGCGUGUAUUGAAUUUAAGAAGACAGACUAGCACAAAACACAGAAUUCGUGUUAACCAAAGGAGGCAUUGAUGGAAUUCUCGGGUGCCAA` is recorded as 0.722.
`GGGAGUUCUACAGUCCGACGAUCAUUCAGUUUCAGAGGGACAGUUUUGAGGAUUAAGACACUUGGAAACAGAAGAACUCUGGUAAUGCUUAGUCUUGUGAGAACCAGUUAUUCUGGGCUGUGAAGGCAGUUGCUGGAAUUCUCGGGUGCCAA` — result for “RBNS enrichment (R)”: 1.28.

Series 3
Target: Histone acetyltransferase KAT6A, winged helix 2, GST fusion (KAT6A, Homo sapiens, UniProt Q92794, residues 85-181)
Method: protein binding microarray
Molecule type: double-stranded DNA, one strand shown
Matrix: in vitro
Concentration: not given
Setting: 8-mer, flanks averaged, mean of 2 arrays, mostly near background
Relative to: not given
Direction: higher = stronger binding
Target sequence (chain): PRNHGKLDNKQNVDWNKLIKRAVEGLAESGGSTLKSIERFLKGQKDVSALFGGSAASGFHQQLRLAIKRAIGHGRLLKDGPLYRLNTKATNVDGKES
The E-score of `CACGGAGA` is reported as 0.134.
`ACCGACAT` gave an E-score of 0.00566.
For `AAGTTGCG`, the E-score was -0.025.
With `CGATCAAC` the E-score was -0.103.
The E-score of `ATAACACC` is reported as 0.021.
`ACAGAGTG` gave an E-score of 0.0731.
`CATGACAG` gave an E-score of -0.0686.
The E-score of `TAAACAGA` is reported as 0.043.
The E-score of `ATCAGCAT` is reported as 0.00587.
The E-score of `GCTGAACA` is reported as 0.0831.
`ACGCTACT` gave an E-score of 0.127.
With `TAATGATA` the E-score was 0.0806.
`CTTACATA` gave an E-score of -0.0242.
For `ATTCGAGG`, the E-score was 0.0355.
For `CGTGCCCA`, the E-score was 0.0105.
`CCAAACGG` gave an E-score of 0.024.
With `GAACTACA` the E-score was -0.107.
With `ACTGTGAG` the E-score was -0.0667.
The E-score of `ACGAAGCA` is reported as 0.0657.
With `CAGGTTCA` the E-score was 0.00579.
With `GCAGGTCC` the E-score was 0.118.
For `GCAGCGAC`, the E-score was 0.0973.
`GTACAACA` gave an E-score of 0.0295.
The E-score of `GTTCACGA` is reported as 0.0227.
For `ATGGGCTA`, the E-score was -0.113.

Series 4
Target: Sal-like protein 4, full length isoform B (SALL4, Homo sapiens, UniProt Q9UJQ4-2, residues 1-616)
Method: universal PBM
Molecule type: double-stranded DNA, one strand shown
Matrix: in vitro
Concentration: not given
Setting: 8-mer, flanks averaged, mean of replicates
Direction: higher = stronger binding
For `AGGGCCTA`, the E-score was -0.198.
`ATACCTTC` gave an E-score of 0.108.
The E-score of `CATTATAG` is reported as 0.188.
With `TATGTTGA` the E-score was 0.338.
The E-score of `AATAATCT` is reported as 0.367.
With `ATGCACTA` the E-score was 0.114.
The E-score of `ATGGAGAG` is reported as 0.0631.
`GAAGGTAA` gave an E-score of 0.218.
With `GTCTGCCA` the E-score was -0.172.
The E-score of `CCTGCTCG` is reported as -0.302.
`GATGCATA` gave an E-score of 0.12.
`ATTCATGA` has an E-score of 0.222.
For `GATTGCGA`, the E-score was -0.00423.
`AAGGATCT` gave an E-score of -0.0566.
With `CAACAGGC` the E-score was -0.154.
The E-score of `GGCCGTAC` is reported as -0.161.
With `CAGTAGGC` the E-score was -0.0754.
For `CGGAAGAA`, the E-score was -0.0712.
`GATGTTTA` gave an E-score of 0.127.
`CGAGGCCA` has an E-score of -0.301.
`AGATCAGG` has an E-score of -0.1.
The E-score of `AACCGGCT` is reported as -0.125.
For `CCGCTGTC`, the E-score was -0.277.
The E-score of `ATGCAGGG` is reported as -0.234.
`CCCTTACC` has an E-score of -0.0686.

Excerpt of the above (series 4):
With `GTCTGCCA` the E-score was -0.172.
The E-score of `CCTGCTCG` is reported as -0.302.
`GATGCATA` gave an E-score of 0.12.
`ATTCATGA` has an E-score of 0.222.
For `GATTGCGA`, the E-score was -0.00423.
`AAGGATCT` gave an E-score of -0.0566.
With `CAACAGGC` the E-score was -0.154.
The E-score of `GGCCGTAC` is reported as -0.161.
With `CAGTAGGC` the E-score was -0.0754.
